Measurements gathered from unrelated publications.
Lines come from different studies, so protocols differ. Several values in a cell are separate wells, animals, samples, runs or records. ± gives the spread as reported.
blaNDM-1: Metallo-beta-lactamase type 2 (blaNDM-1, Klebsiella pneumoniae, UniProt C7C422)
Chain of UniProt A5GZW8 (whole entry, looked up): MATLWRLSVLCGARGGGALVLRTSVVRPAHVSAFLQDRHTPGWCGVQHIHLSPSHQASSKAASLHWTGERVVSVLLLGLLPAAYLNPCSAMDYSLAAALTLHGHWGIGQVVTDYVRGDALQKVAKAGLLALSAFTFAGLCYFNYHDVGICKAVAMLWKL
Chain of UniProt Q007T0 (whole entry, looked up): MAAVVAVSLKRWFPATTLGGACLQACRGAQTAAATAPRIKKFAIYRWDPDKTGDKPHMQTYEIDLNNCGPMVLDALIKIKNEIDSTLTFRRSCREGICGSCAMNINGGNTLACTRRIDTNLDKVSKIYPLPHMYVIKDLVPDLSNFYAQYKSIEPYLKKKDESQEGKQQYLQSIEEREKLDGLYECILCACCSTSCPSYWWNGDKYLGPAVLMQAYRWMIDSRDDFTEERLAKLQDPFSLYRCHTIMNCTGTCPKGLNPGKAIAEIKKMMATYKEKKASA
Chain of UniProt D0VWV4 (whole entry, looked up): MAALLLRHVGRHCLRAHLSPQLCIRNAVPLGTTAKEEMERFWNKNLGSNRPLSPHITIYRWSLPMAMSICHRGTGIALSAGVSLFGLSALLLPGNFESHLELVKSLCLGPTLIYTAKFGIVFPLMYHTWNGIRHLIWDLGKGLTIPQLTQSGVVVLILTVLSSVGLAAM
Chain of UniProt P43115 (whole entry, looked up): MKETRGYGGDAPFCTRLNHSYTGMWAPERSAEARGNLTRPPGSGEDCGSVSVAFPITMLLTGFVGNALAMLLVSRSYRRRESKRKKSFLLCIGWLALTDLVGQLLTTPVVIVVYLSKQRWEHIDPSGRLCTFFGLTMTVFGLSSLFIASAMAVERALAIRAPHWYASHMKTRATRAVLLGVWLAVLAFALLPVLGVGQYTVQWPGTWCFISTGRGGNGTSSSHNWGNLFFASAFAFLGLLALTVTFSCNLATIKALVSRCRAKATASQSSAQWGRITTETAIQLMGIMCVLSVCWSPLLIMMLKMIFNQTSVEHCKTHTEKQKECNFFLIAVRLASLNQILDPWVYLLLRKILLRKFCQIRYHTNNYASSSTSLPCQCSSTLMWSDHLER
Chain of UniProt P32238 (whole entry, looked up): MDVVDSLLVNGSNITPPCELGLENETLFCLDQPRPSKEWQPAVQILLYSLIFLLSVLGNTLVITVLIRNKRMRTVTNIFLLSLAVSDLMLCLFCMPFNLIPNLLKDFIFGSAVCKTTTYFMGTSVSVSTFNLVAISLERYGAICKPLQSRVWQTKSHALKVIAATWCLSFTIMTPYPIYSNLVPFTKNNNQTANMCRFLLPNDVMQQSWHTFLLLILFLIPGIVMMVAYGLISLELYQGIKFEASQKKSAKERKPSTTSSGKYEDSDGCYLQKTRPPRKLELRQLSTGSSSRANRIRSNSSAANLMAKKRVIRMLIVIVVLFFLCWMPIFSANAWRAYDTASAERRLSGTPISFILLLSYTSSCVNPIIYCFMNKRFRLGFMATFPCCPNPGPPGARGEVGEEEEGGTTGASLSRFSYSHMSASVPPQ
Chain of UniProt O42275 (whole entry, looked up): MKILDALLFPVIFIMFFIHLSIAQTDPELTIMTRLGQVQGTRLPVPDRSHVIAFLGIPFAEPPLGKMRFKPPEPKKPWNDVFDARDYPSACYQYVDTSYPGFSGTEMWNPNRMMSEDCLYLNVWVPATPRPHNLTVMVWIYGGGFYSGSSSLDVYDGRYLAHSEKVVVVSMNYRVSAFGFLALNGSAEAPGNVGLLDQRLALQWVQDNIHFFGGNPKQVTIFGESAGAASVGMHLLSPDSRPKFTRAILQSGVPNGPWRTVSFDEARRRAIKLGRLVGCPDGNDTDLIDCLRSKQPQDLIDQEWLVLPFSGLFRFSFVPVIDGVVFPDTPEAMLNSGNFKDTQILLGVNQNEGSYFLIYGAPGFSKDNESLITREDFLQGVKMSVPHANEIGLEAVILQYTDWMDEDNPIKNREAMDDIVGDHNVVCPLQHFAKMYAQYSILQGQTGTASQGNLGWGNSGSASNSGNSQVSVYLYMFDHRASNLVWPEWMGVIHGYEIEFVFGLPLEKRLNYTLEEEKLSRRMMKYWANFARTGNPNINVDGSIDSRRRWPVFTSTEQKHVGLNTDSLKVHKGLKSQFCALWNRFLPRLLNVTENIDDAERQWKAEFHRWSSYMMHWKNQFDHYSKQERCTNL
Chain of UniProt P00942 (whole entry, unmodified, looked up): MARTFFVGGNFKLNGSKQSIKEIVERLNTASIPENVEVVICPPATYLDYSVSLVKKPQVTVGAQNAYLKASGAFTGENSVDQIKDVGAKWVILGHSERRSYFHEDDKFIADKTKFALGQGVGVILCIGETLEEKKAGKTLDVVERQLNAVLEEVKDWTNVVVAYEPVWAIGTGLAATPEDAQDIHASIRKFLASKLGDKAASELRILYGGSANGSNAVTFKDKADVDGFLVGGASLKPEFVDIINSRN
Chain of UniProt Q16816 (whole entry, looked up): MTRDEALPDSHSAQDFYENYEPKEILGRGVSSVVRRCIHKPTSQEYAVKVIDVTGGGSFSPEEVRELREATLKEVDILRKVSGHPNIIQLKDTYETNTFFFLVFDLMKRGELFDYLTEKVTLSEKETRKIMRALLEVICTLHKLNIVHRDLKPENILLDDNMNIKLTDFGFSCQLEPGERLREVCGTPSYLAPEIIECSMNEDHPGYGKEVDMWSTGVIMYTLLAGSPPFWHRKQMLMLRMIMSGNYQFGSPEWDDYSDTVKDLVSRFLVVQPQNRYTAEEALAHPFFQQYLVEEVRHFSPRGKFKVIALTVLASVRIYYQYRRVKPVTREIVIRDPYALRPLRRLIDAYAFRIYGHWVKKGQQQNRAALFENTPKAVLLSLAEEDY
Chain of UniProt Q704Y3 (whole entry, looked up): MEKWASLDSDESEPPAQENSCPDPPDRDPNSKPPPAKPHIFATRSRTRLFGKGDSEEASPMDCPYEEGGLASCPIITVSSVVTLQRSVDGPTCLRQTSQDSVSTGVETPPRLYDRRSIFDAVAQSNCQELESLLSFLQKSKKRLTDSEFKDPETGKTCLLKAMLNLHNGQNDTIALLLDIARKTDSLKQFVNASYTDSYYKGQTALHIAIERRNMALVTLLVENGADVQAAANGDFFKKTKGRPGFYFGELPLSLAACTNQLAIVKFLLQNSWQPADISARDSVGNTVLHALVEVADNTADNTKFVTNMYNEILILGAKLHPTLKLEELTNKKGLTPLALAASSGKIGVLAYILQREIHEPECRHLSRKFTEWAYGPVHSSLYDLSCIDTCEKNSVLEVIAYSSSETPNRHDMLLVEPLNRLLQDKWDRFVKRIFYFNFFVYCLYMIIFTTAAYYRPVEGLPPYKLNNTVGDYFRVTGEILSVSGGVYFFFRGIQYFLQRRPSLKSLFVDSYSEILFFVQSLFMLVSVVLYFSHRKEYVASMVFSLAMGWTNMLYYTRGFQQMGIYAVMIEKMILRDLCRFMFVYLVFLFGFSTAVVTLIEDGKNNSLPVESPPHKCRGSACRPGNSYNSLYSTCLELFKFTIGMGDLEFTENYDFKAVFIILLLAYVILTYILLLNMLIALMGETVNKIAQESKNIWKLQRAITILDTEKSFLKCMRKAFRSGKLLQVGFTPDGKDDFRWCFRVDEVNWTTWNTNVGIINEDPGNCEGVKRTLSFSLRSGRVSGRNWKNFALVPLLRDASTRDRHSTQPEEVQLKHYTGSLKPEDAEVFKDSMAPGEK
Chain of UniProt Q14994 (whole entry, looked up): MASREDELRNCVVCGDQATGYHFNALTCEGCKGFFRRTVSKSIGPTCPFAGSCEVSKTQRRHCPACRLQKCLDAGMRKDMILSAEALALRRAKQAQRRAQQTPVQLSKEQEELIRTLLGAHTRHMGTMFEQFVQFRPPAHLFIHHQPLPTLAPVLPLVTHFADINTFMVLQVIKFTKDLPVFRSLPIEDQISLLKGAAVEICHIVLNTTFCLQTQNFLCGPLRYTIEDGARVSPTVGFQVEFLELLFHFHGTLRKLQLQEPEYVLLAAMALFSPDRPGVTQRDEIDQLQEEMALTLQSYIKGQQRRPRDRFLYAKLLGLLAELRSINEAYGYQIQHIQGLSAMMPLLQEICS
Chain of UniProt Q32MK0 (whole entry, looked up): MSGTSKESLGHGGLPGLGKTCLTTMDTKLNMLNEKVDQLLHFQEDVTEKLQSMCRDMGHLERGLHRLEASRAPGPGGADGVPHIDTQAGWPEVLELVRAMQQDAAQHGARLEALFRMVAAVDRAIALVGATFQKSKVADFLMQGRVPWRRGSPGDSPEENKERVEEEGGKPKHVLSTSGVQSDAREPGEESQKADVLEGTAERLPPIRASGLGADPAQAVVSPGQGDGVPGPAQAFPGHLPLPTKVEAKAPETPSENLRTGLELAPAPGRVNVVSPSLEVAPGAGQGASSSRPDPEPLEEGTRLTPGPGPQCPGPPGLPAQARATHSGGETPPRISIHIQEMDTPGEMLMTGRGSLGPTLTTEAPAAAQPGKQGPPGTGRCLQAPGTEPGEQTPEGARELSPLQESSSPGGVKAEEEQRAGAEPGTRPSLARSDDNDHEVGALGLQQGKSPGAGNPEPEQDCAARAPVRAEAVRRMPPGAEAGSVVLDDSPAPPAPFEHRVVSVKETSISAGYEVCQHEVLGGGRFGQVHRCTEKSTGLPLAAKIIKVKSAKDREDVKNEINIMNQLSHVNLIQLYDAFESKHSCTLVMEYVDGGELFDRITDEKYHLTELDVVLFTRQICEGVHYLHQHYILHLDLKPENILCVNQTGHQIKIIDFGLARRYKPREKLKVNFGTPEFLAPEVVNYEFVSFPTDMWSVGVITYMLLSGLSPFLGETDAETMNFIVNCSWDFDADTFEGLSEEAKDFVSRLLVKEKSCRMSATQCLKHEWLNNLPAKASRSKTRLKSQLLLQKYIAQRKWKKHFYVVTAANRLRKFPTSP

[2H]c1c([2H])c([C@]2([2H])CCCN2C(=O)C(C)(C)Oc2ccc3cn[nH]c3c2)c([2H])c([2H])c1C([2H])([2H])[2H]  remaining binding (Myosin light chain kinase (MYLK3, Homo sapiens, UniProt Q32MK0); KINOMEscan; 1 µM; relative to: DMSO control): 98%
O=C(c1ccc(Cl)cc1)N1CCN2C(=O)N(OC(=O)N3CCOc4ccccc43)C(=O)C2C1 (stereo not shown)  peptide ratio (Dipeptidyl peptidase 2 (Homo sapiens, UniProt Q9UHL4); MS-based ABPP; SW-620 conditioned medium; 10 µM, 1 h, 37 °C; relative to: compound over DMSO, lower = more inhibition): 0.89 and 0.84 and 1 and 0.94 and 1.41 and 1.28 and 0.99
NCCc1c[nH]c2ccc(O)cc12  Km (AANAT1 Hippopotamus amphibius; substrate, DTNB colorimetric; with: acetyl-CoA): 350 ± 110 µM
C=C(CN(C(=O)c1c(C(F)F)nn(C)c1F)C1CC1)c1ccc(Cl)cc1Cl  reaction velocity (SDHD/SDHC/SDHB (Sus scrofa, UniProt A5GZW8+D0VWV4+Q007T0); enzyme activity, inhibitor, DCIP reduction; pig; 0.2 µM, with: DCIP 190 µM): 0.0261 µM/s and 0.0278 µM/s and 0.0273 µM/s
Nc1ncc(-c2nc(N3CCOCC3)nc(N3CCOCC3)n2)c(C(F)F)n1  remaining binding (NMDA receptor; radioligand binding, antagonist ligand; 10 µM; relative to: control): 99.6%
CC(CCn1ccc(-c2ccc(-c3cn(CC45CC(C4)C5)nn3)cc2)cc1=O)(C(=O)NO)S(C)(=O)=O (stereo not shown)  residence time (UDP-3-O-acyl-N-acetylglucosamine deacetylase (Pseudomonas aeruginosa, UniProt P47205); relative to: 1): ~3 fold
O=C(NO)[C@H]1COC(c2c[nH]c3ccc(F)cc23)=N1  ΔS of binding (UDP-3-O-acyl-N-acetylglucosamine deacetylase (Pseudomonas aeruginosa, UniProt P47205, C40S); ITC; concentration not given, 298 K): 0.109 kJ/(mol·K)
CC(C)OC(=O)[C@H](C)NP(=S)(Oc1ccc(CCN2CCOCC2)cc1)c1ccccc1 (stereo partly shown)  degradation rate constant (Lysosomal protective protein (CTSA, Homo sapiens, UniProt P10619); substrate, LC-MS/MS; 5 µM, pH 7.4, 37 °C): 0.93 h⁻¹
O=C(Nc1cccnn1)N1CCC(=Cc2cccc(Oc3ccc(C(F)(F)F)cn3)c2)CC1  inhibition of binding (Leukotriene B4 receptor 1 (LTB4R, Homo sapiens, UniProt Q15722); radioligand binding; 10 µM, with: [3H]LTB4): 19%
O=P(O)(O)OC[C@H]1C[C@@](O)(CO)[C@@H](O)[C@H](O)[C@@H]1O  apparent Vmax (valA (Streptomyces hygroscopicus, UniProt H2K887); phosphate release; 100 µM): 2.5 ± 0.3 µM/min
COc1ccc(N2C(=O)N(c3c(C)cccc3Cl)Cc3cnc(Nc4ccc(C5CCN(C)CC5)cc4OC)nc32)nc1  inhibition (Phosphorylase b kinase gamma catalytic chain, skeletal muscle/heart isoform (PHKG1, Homo sapiens, UniProt Q16816); kinase activity, inhibitor; 0.5 µM, kinase PHK-GAMMA1): 8%
c1ccc2c(c1)cc1ccc3cccc4ccc2c1c34  agonist response (Aryl hydrocarbon receptor (Ahr, Rattus norvegicus, UniProt P41738); agonist, CALUX reporter; H4IIE; 0.0126 µg/mL): 75.7%
Clc1cc2c(cc1Cl)Oc1cc(Cl)c(Cl)cc1O2  maximal fold induction (Uncharacterized protein (Takifugu rubripes, UniProt Q4JHL6); reporter gene, agonist, dual-luciferase; COS-7; 24 h; relative to: top over bottom): 2.93 ± 0.19
CC(C)(C)C(=O)C1C(=O)c2ccccc2C1=O  activity (Nuclear receptor subfamily 1 group I member 3 (Homo sapiens, UniProt Q14994); concentration not given): inactive
O=C(O)c1cccc(C(=O)O)n1  koff (blaNDM-1; enzyme activity, inhibitor; with: nitrocefin): 0.00433 ± 0.000333 s⁻¹
CCCN(CCOc1c(Cl)cc(Cl)cc1Cl)C(=O)n1ccnc1  fold change (F-box only protein 22 (Homo sapiens, UniProt Q8NEZ5); binding, affinity selection mass spectrometry; 100 nM, pooled screen; relative to: other proteins): 22
O=C(O)COP(=O)(O)O  Ki ratio (TPI1 (Saccharomyces cerevisiae, UniProt P00942, S211A); enzyme activity, competitive inhibitor, GPDH/NADH-coupled; pH 4.9, 25 °C, ionic strength 0.1 NaCl, with: glyceraldehyde 3-phosphate substrate; relative to: mutant over wild type): 159
O=C(Nc1cnccc1Cl)N1CCN(Cc2ccc3c(c2)OC(F)(F)O3)CC1  inhibition (Prostaglandin E2 receptor EP3 subtype (PTGER3, Homo sapiens, UniProt P43115); radioligand binding, inhibitor; 10 µM, human, with: [3H]prostaglandin E2): -10%
C[C@]12CC[C@H]3[C@@H](CCC4=CC(=O)CC[C@@]43C)[C@@H]1CC[C@@H]2C(=O)CO  k1 (Cytochrome P450 11B2, mitochondrial (CYP11B2, Homo sapiens, UniProt P19099, A320V)): 316 ± 134 s⁻¹
C[C@H]1CN(c2n[nH]c3nc(N[C@H]4CC[C@H](NS(=O)(=O)CCC(F)(F)F)CC4)ncc23)CCO1  relative abundance (Serine/threonine-protein kinase WNK1 (WNK1, Homo sapiens, UniProt Q9H4A3); inhibitor, Kinobeads competition profiling; 20 µM; relative to: vehicle): 1.15
COc1cc(N)c(Cl)cc1C(=O)NC1CN2CCC1CC2 (stereo not shown)  log2 fold change (Adhesion G protein-coupled receptor F5 (ADGRF5, Homo sapiens, UniProt Q8IZF2); β-arrestin recruitment, TANGO luminescence, refers to: GPR116; concentration not given; relative to: basal luminescence): -0.234
CCCCC/C=C\C/C=C\C/C=C\C/C=C\CCCC(=O)NCCO  maximal open probability (Transient receptor potential cation channel subfamily V member 1 (Trpv1, Mus musculus, UniProt Q704Y3); ion current, agonist, whole-cell patch clamp; HEK293; relative to: 3 mM 2-APB current): 0.85 ± 0.14
CNC(=O)Oc1ccccc1OC(C)C  remaining activity (uncharacterized protein (Anopheles coluzzii, UniProt A0A6E8VQK1); enzyme activity, inhibitor; Sf9 cell homogenate; 0.1147 µM, 0.1667 h, with: α-naphthyl acetate substrate; relative to: no inhibitor): 98.3%
CC[C@H](C)[C@H](NC(=O)CNC(=O)[C@@H](N)CCCCN)C(=O)N[C@@H](CC(C)C)C(=O)N[C@@H](CCCCN)C(=O)N[C@@H](CCCNC(=N)N)C(=O)N[C@@H](CCC(=O)O)C(=O)N[C@@H](CCCCN)C(=O)N[C@@H](CCCNC(=N)N)C(=O)N[C@@H](CC(C)C)C(=O)N[C@@H](CCCNC(=N)N)C(=O)N[C@@H](CCCNC(=N)N)C(=O)N[C@@H](CCCCN)C(=O)N[C@@H](CC(N)=O)C(=O)N[C@H](C(=O)N[C@@H](Cc1c[nH]cn1)C(=O)N[C@@H](Cc1c[nH]c2ccccc12)C(=O)N1CCC[C@H]1C(=O)N[C@@H](CCC(=O)O)C(=O)N[C@@H](CCC(=O)O)C(=O)NCC(=O)N[C@@H](CCCCN)C(=O)N[C@@H](CC(C)C)C(=O)N[C@@H](CCCNC(=N)N)C(=O)N[C@@H](CCC(=O)O)C(=O)N[C@@H](Cc1ccccc1)C(=O)N[C@@H](Cc1ccccc1)C(=O)N[C@@H](Cc1ccccc1)C(=O)N[C@@H](Cc1ccccc1)C(=O)N[C@@H](CCC(=O)O)C(=O)N[C@@H](CC(C)C)C(=O)N[C@@H](CC(=O)O)C(=O)N[C@@H](CCC(=O)O)C(=O)N[C@@H](C)C(=O)N[C@@H](CCC(=O)O)C(=O)N[C@@H](CCCNC(=N)N)C(=O)N[C@H](C(=O)N[C@@H](CC(N)=O)C(=O)N[C@H](C(=O)O)C(C)C)C(C)C)C(C)C  enthalpy change ΔH (Serine/threonine-protein phosphatase PP1-alpha catalytic subunit (PPP1CA, Homo sapiens, UniProt P62136); binding, isothermal titration calorimetry; concentration not given, 25 °C, PP1α residues 7-330): -28.4 ± 1 kcal/mol
CN(C(=O)n1cnc(-c2ccc[n+]([O-])c2)c1)C1CCCCC1  inhibition (Prostaglandin E2 receptor EP1 subtype (PTGER1, Homo sapiens, UniProt P34995); binding, refers to: EP1; 10 µM, human, with: [3H]prostaglandin E2): 7%
CC[C@H](C)[C@H](N)C(=O)N1CCC[C@H]1C(=O)N1CCC[C@H]1C(=O)NCC(=O)N[C@H](C(=O)N1CCC[C@H]1C(=O)N[C@@H](Cc1ccc(O)cc1)C(=O)O)C(C)C  selectivity ratio (Amine oxidase [flavin-containing] A (MAOA, Homo sapiens, UniProt P21397); inhibitor, fluorometric; relative to: IC50 MAO-B over IC50 MAOA): 11
C[C@@H](O)[C@H](NC(=O)[C@H](Cc1ccccc1)NC(=O)[C@H](Cc1ccccc1)NC(=O)[C@H](CC(=O)O)NC(=O)[C@H](CC(=O)O)NC(=O)[C@H](Cc1c[nH]c2ccccc12)NC(=O)[C@H](CO)NC(=O)[C@@H](N)CCCCN)C(=O)N[C@@H](CCCNC(=N)N)C(=O)O  kon (Epithelial sodium channel subunit alpha (Homo sapiens, UniProt P37088); binding, bio-layer interferometry): 159 M⁻¹ s⁻¹
COc1cc(Nc2ncc(F)c(Nc3ccc4c(n3)NC(=O)C(C)(C)O4)n2)cc(OC)c1OC  inhibition (Serine/threonine-protein kinase Nek3 (NEK3, Homo sapiens, UniProt P51956); KINOMEscan; 10 µM): 99%
CCOC(=O)COc1ccc2c(=O)c3ccccc3oc2c1  reaction velocity (Acetylcholinesterase (ache, Electrophorus electricus, UniProt O42275); enzyme activity; 0.84 µM, with: substrate 0.43 mM; higher = faster reaction): 0.0007 a.u.
C[C@H](CS)C(=O)N1CCC[C@H]1C(=O)O  Hill coefficient (blaNDM-1; enzyme activity, inhibitor): 0.58 ± 0.03
O=[N+]([O-])c1ccc(O[P@](=O)(Oc2ccccc2)OC2CCCCC2)cc1  Km (had (Sphingobium sp. TCM1, UniProt A0A077JBW9)): 260 ± 30 µM
COC(=O)[C@@]1(O)C[C@H]2O[C@]1(C)n1c3ccccc3c3c4c(c5c6ccccc6n2c5c31)C(=O)NC4  remaining activity (Mitogen-activated protein kinase 3 (MAPK3, Homo sapiens, UniProt P27361); ADP-Glo; 1 µM, with: substrate MBP): 111%
CN1CCN(c2cc(-c3ccncc3)c(-c3ccc4ccccc4c3)nn2)CC1  inhibition (Cholecystokinin receptor type A (CCKAR, Homo sapiens, UniProt P32238); antagonist, FLIPR; 10 µM): 21.1%
OB(O)CSc1nc2ccccc2n1Cc1ccc(C(F)(F)F)cc1C(F)(F)F  number of binding sites (Regulatory protein BlaR1, sensor domain (blaR1, Staphylococcus aureus, UniProt P18357); tryptophan fluorescence quenching; concentration not given): 1.2
